Results collected from several papers.
Several values in a cell are separate wells, animals, samples, runs or records. ± gives the spread as reported.

With O=C(O)C(F)(F)C(F)(F)C(F)(F)C(F)(F)C(F)(F)C(F)(F)C(F)(F)C(F)(F)C(F)(F)C(F)(F)F the LDH release was 18.1 mU/mL and 15.3 mU/mL and 11.3 mU/mL and 17.6 mU/mL (hTERT-RPTEC-OAT1; concentration not given, Transwell, basolateral-to-apical addition).
CC[C@@H](C)[C@H]1O[C@@H](c2c(O)c(-c3ccccc3)cn(OC)c2=O)[C@H](C)C[C@@H]1C gave an IC50 of > 10 µg/mL (BT-549; cytotoxicity, neutral red; 48 h).
Under “LDH activity in medium”, O=C(O)C(F)(F)C(F)(F)C(F)(F)C(F)(F)C(F)(F)C(F)(F)C(F)(F)C(F)(F)C(F)(F)F is recorded as 5.82 mU/mL (hTERT-RPTEC-OAT1; LDH release; culture medium; concentration not given, 24 h, 96-well plate).
Cc1cn([C@H]2C[C@H](F)[C@@H](CO)O2)c(=O)[nH]c1=O — result for “minimal cytotoxic concentration”: > 250 µM (HEL; cell morphology).
COc1ccc2c(c1OC)C(=O)c1c(cc(C)c(O)c1OC)C2=O has a cell viability of 85.2 ± 2.71% (HepaRG co-cultured with HK-2; MTT; 66.67 µM, 48 h; relative to: untreated control).
The subcytotoxic concentration of COC(=O)C=Cc1ccc(OC)c(OC)c1 is reported as 50 µM (HaCaT; MTT; 24 h, 10% FBS).
For CN[C@@H]1C[C@H]2O[C@@](C)([C@@H]1OC)n1c3ccccc3c3c4c(c5c6ccccc6n2c5c31)C(=O)NC4, viability read “decreased” (MCF7; CellTiter-Glo; concentration not given, 24 and 48 h, positive control).
Oc1ccc(C2(c3ccc(O)cc3)c3ccccc3-c3ccccc32)cc1: “late apoptotic cells” 8.25 ± 2.31% (HepG2 spheroids; annexin V-FITC/PI flow cytometry; 10 µM, 24 h).
O=C1c2ccccc2C(=O)c2ccccc21 has a cell viability of 85.7 ± 2.5% (HepaRG co-cultured with HK-2; MTT; 16.67 µM, 48 h; relative to: untreated control).
With CC1=C(O)C(=O)C=C2C1=CC=C1[C@@]2(C)CC[C@@]2(C)[C@@H]3C[C@](C)(C(=O)O)CC[C@]3(C)CC[C@]12C the metabolic activity was 0.69 ± 0.31 (COS-7; WST-8; 3 µM, 24 h, 0.1% DMSO, unit not given; relative to: vehicle control).
CC(=O)OC[C@H]1O[C@@H](Oc2cc(O)cc3cc4oc(C)cc(=O)c4c(O)c23)[C@H](O)[C@@H](O)[C@@H]1O gave a cell viability of 46.6 ± 3.51% (HepaRG co-cultured with HK-2; MTT; 266.67 µM, 48 h; relative to: untreated control).
CCCCCCCCCCOc1cc2c(O)c(C(=O)OCC)cnc2cc1OCC gave an IC50 of > 100 µM (HEK293T; cytotoxicity; 3 days).
The viable cells of Cc1cc(C(C)(C)c2ccc(O)c(C)c2)ccc1O is reported as 41.9 ± 2.45% (HepG2 spheroids, dissociated; annexin V-FITC/PI flow cytometry; 10 µM, 96 h).
The mRNA level of N#C[C@H](C[C@@H]1CCCNC1=O)NC(=O)[C@H](CC1CC1)NC(=O)c1cc2cccc(Cl)c2[nH]1 is reported as ≤ 26.4 fold (cryopreserved human hepatocytes; measured: CYP3A4; 10 µM, 72 h; relative to: vehicle).
CC[C@H](C)[C@H](NC(=O)[C@H](CCSC)NC(=O)[C@H](Cc1c[nH]cn1)NC(=O)[C@@H](NC(=O)[C@H](CC(C)C)NC(=O)[C@H](CO)NC(=O)[C@H](CO)NC(=O)[C@H](CCCCN)NC(=O)[C@H](Cc1ccc(O)cc1)NC(=O)[C@H](CCCCN)NC(=O)[C@H](CC(N)=O)NC(=O)[C@H](CO)NC(=O)[C@H](CCCCN)NC(=O)[C@H](CC(C)C)NC(=O)[C@@H](NC(=O)[C@H](CC(C)C)NC(=O)[C@H](CC(C)C)NC(=O)[C@H](CCSC)NC(=O)[C@H](CCCNC(=N)N)NC(=O)[C@H](CCCCN)NC(=O)[C@H](CCCNC(=N)N)NC(=O)[C@@H](N)Cc1c[nH]c2ccccc12)[C@@H](C)O)C(C)C)C(=O)N[C@@H](CC(C)C)C(=O)NCC(=O)N[C@@H](CC(C)C)C(=O)N[C@@H](CO)C(=O)N[C@@H](CC(C)C)C(=O)N[C@@H](CCC(N)=O)C(=O)N[C@H](C(=O)N[C@@H](CS)C(=O)N[C@@H](CC(C)C)C(=O)N[C@H](C(=O)N[C@@H](CCCCN)C(=O)O)[C@@H](C)O)[C@@H](C)CC gave a CC50 of 163 µM (HaCaT; cell viability, MTT).
Under “point of departure”, O=c1ccc2ccccc2o1 is recorded as 760 µM (HepaRG 3D spheroids; cellular ATP; 24 h, high-content imaging).
Oc1ccc(C(c2ccc(O)cc2)(C(F)(F)F)C(F)(F)F)cc1 has a necrotic cells of 5.32 ± 2.1% (HepG2 spheroids; annexin V-FITC/PI flow cytometry; 1 µM, 24 h).
CC[C@H](C)[C@H](NC(=O)[C@H](CO)NC(=O)[C@H](CC(N)=O)NC(=O)[C@H](CC(C)C)NC(=O)[C@H](CCCNC(=N)N)NC(=O)[C@H](CC(N)=O)NC(=O)[C@H](CS)NC(=O)[C@H](CCCCN)NC(=O)[C@@H](NC(=O)[C@H](CCCCN)NC(=O)[C@H](CC(C)C)NC(=O)[C@H](CC(N)=O)NC(=O)[C@@H](NC(=O)[C@@H]1CCCN1C(=O)[C@@H]1CCCN1C(=O)[C@H](Cc1ccc(O)cc1)NC(=O)[C@H](CCCCN)NC(=O)[C@H](CC(N)=O)NC(=O)[C@@H](NC(=O)[C@H](C)NC(=O)[C@H](CCCNC(=N)N)NC(=O)[C@H](CCCNC(=N)N)NC(=O)[C@@H](NC(=O)[C@H](CO)NC(=O)[C@H](CC(N)=O)NC(=O)[C@@H](NC(=O)[C@H](Cc1ccccc1)NC(=O)[C@H](CO)NC(=O)[C@H](CCCCN)NC(=O)[C@@H](NC(=O)[C@H](Cc1ccccc1)NC(=O)[C@H](CCCCN)NC(=O)[C@@H](N)C(C)C)C(C)C)[C@@H](C)CC)[C@@H](C)CC)[C@@H](C)CC)[C@@H](C)CC)[C@@H](C)CC)C(=O)O has a CC50 of 38.5 µM (HaCaT; cell viability, MTT).
CC(C)C[C@H](NC(=O)[C@@H](NC(=O)[C@H](CCCNC(=N)N)NC(=O)[C@H](CCC(N)=O)NC(=O)[C@H](Cc1ccccc1)NC(=O)[C@H](Cc1ccc(O)cc1)NC(=O)[C@H](CC(N)=O)NC(=O)[C@H](Cc1c[nH]c2ccccc12)NC(=O)[C@@H](NC(=O)[C@H](CCCNC(=N)N)NC(=O)[C@H](CCCCN)NC(=O)[C@@H](N)Cc1ccccc1)C(C)C)C(C)C)C(=O)N[C@H](C(=O)N[C@@H](CCCCN)C(=O)N[C@@H](CCCCN)C(N)=O)C(C)C gave a hemolysis of 2.5 ± 0.4% (rat erythrocytes; 200 µM, 60 min, 37 °C).
CN(N=O)[C@H]1CC[C@@H](c2ccc(Cl)c(Cl)c2)c2ccccc21 has a relative survival of 28.6% (TK6 expressing CYP2B6; 0.04 µM, 4 h, without S9; relative to: vehicle).
For N.N.O=C([O-])C1(C(=O)[O-])CCC1.[Pt+2], the IC50 was 119 ± 5.93 µM (HaCaT; cell viability, MTT; 48 h).
With CC(C)C[C@H](NC(=O)[C@H](CCCNC(=N)N)NC(=O)CNC(=O)CNC(=O)CNC(=O)c1ccc2c(c1)C(=O)OC21c2ccc(O)cc2Oc2cc(O)ccc21)C(=O)N[C@@H](CO)C(=O)N[C@@H](CO)C(=O)N[C@H](C(=O)N[C@@H](CC(=O)O)C(=O)N[C@@H](CO)C(=O)N[C@@H](CC(=O)O)C(=O)N[C@@H](CC(C)C)C(=O)N[C@@H](CO)C(=O)NCC(=O)N[C@@H](CS)C(N)=O)C(C)C the transport ratio was 3% (hCMEC/D3 monolayers; BBB permeability, Transwell, measured: CF-labelled compound; EGM-2 medium; concentration not given, 1 h, apical to basal; relative to: fluorescence added apically).
The LDH release of O=C(O)C(F)(F)C(F)(F)C(F)(F)F is reported as 17.8 mU/mL and 10 mU/mL and 13.8 mU/mL and 18.6 mU/mL (hTERT-RPTEC-OAT1; concentration not given, Transwell, basolateral-to-apical addition).
COc1cc2nc(c1)CNCc1cc(OC)cc(n1)CNC2 has an LD50 of 3.23 mM (Friedreich's ataxia fibroblasts; MTT).
The cell viability of Cc1cc2c(c(O)c1O)C(=O)c1c(O)cc(O)cc1C2=O is reported as 85.5 ± 12.7% (HepaRG co-cultured with HK-2; MTT; 66.67 µM, 48 h; relative to: untreated control).
Cc1cccc(C)c1N(Cn1cccn1)C(=O)CCl has an IC10 of 112 µM (MCF7 AREc32 cells; cell viability, IncuCyte imaging; 24 h, freely dissolved concentration).
CC(=O)c1c(O)c(C)c(O)c(Cc2c(O)c3c(c(C(=O)/C=C/c4ccccc4)c2O)OC(C)(C)C=C3)c1O has an LD50 of 0.0203 mM (MRC-5, mock-infected; nuclei count; 96 h).
For N=C(N)NCCC[C@H](NC(=O)[C@H](CCCNC(=N)N)NC(=O)[C@H](CCCNC(=N)N)NC(=O)[C@H](CCC(N)=O)NC(=O)[C@H](CCCNC(=N)N)NC(=O)[C@H](CCCNC(=N)N)NC(=O)[C@H](CCCCN)NC(=O)[C@H](CCCCN)NC(=O)[C@H](CCCNC(=N)N)NC(=O)CNC(=O)[C@H](Cc1ccc(O)cc1)NC(=O)CNC(=O)CNC(=O)CNC(=O)c1ccc2c(c1)C(=O)OC21c2ccc(O)cc2Oc2cc(O)ccc21)C(N)=O, the transport ratio was 5.8% (hCMEC/D3 monolayers; BBB permeability, Transwell, measured: CF-labelled compound; EGM-2 medium; concentration not given, 2 h, apical to basal; relative to: fluorescence added apically).

A few entries again:
CC(C)C[C@H](NC(=O)[C@@H](NC(=O)[C@H](CCCNC(=N)N)NC(=O)[C@H](CCC(N)=O)NC(=O)[C@H](Cc1ccccc1)NC(=O)[C@H](Cc1ccc(O)cc1)NC(=O)[C@H](CC(N)=O)NC(=O)[C@H](Cc1c[nH]c2ccccc12)NC(=O)[C@@H](NC(=O)[C@H](CCCNC(=N)N)NC(=O)[C@H](CCCCN)NC(=O)[C@@H](N)Cc1ccccc1)C(C)C)C(C)C)C(=O)N[C@H](C(=O)N[C@@H](CCCCN)C(=O)N[C@@H](CCCCN)C(N)=O)C(C)C gave a hemolysis of 2.5 ± 0.4% (rat erythrocytes; 200 µM, 60 min, 37 °C).
CN(N=O)[C@H]1CC[C@@H](c2ccc(Cl)c(Cl)c2)c2ccccc21 has a relative survival of 28.6% (TK6 expressing CYP2B6; 0.04 µM, 4 h, without S9; relative to: vehicle).
